{"data": "Published values of several laboratories", "note": "Compare with care: the assays were run in different laboratories. ± gives the spread as reported."}
{"SMILES": "COc1cc(O)ccc1CCC(c1ccc(O)cc1)c1cc2c(c(C)c1O)OC(c1ccc(O)cc1)CC2 (mixture of isomers)", "test": "refers to: 12-HEPE", "test system": "human whole blood", "conditions": "30 µM, with: A23187", "endpoint": "amount", "value": "231 ± 65 pg/mL blood"}
{"SMILES": "O=C(N/N=C/c1cc[n+](Cc2ccccc2)c2ccccc12)c1ccc2ccc3ccc(C(=O)N/N=C/c4cc[n+](Cc5ccccc5)c5ccccc45)nc3c2n1", "target or system": "telomeric G4 DNA hybrid-2", "test": "FRET melting", "conditions": "1 µM, DNA 0.2 µM", "endpoint": "ΔTm", "value": "27.3 ± 0.8 °C"}
{"SMILES": "Nc1ncc(-c2cc(-c3cnn(CC(F)(F)F)c3)ncc2F)nc1C(=O)NC1CNCC(F)C1 (stereo not shown)", "target or system": "LZK", "test": "KINOMEscan competition binding", "conditions": "1 µM", "how to read": "relative to: DMSO control", "endpoint": "remaining binding", "value": "100%"}
{"SMILES": "C[n+]1cc(/C=N/NC(=O)c2ccc3ccc(C(=O)N/N=C/c4cc5ccccc5[n+](C)c4)nc3n2)cc2ccccc21", "target or system": "telomeric G4 DNA hybrid-2", "test": "FRET melting", "conditions": "1 µM, DNA 0.2 µM, with: duplex DNA competitor 10 µM", "endpoint": "ΔTm", "value": "15.4 ± 0.6 °C"}
{"SMILES": "COC1CN([C@H]2CC[C@H]([C@@]3(C)Oc4c(Cl)cc(C(=O)NCc5c(SC)cc(C)[nH]c5=O)c(C)c4O3)CC2)C1", "test": "RNA-seq, refers to: mouse PALM homolog", "test system": "mouse, HT-1376 xenograft, whole blood", "conditions": "dose not given, PRC2 target gene", "how to read": "relative to: vehicle", "endpoint": "log2 fold change", "value": 0.0512}
{"SMILES": "C[n+]1ccc(/C=N/NC(=O)c2cc(C(=O)N/N=C/c3cc[n+](C)cc3)ncn2)cc1", "target or system": "telomeric G4 DNA hybrid-2", "test": "FRET melting", "conditions": "1 µM, DNA 0.2 µM", "endpoint": "ΔTm", "value": "1.2 ± 0.4 °C"}
{"SMILES": "C=CC(=O)N1[C@@H](c2ccc3c(c2)OCO3)c2[nH]c3ccccc3c2C[C@H]1C(=O)N1CCN(C)CC1", "target or system": "human cyclin E1 wild type-3xFLAG:CDK2", "test": "co-IP with TMT proteomics, refers to: PRPF19", "conditions": "concentration not given, Q9UMS4", "how to read": "relative to: wild type DMSO", "endpoint": "relative co-enrichment", "value": "76%"}
{"SMILES": "C=C(NC(=O)c1csc(-c2nc3c(cc2O)-c2nc(cs2)C(=O)NC(C(C)O)C(=O)NC(=C(C)OC)c2nc(cs2)C(=O)NC2c4nc(cs4)C(=O)NC(COC(=O)c4c5c6c(cccc6n4O)COC(=O)C(OC4CC(C)(O)C(N(C)C)C(C)O4)C2OC5)c2nc-3cs2)n1)C(N)=O (stereo not shown)", "target or system": "Enterococcus faecalis", "test": "microbial growth", "conditions": "clinical isolate", "endpoint": "MIC50", "value": "0.0156 µg/mL"}
{"SMILES": "COCCOCCOCCNC(=O)Cc1cc(CC(=O)N[C@H]2C[C@H]3C(=O)Nc4cc(OCCOCCOCCOC)cc(n4)C(=O)N4CCC[C@H]4C(=O)Nc4cc(OCCOCCOCCOC)cc(n4)C(=O)N4CCC[C@H]4C(=O)Nc4cc(OCCOCCOCCOC)cc(n4)C(=O)N3C2)cc(CC(=O)N[C@H]2C[C@H]3C(=O)Nc4cc(OCCOCCOCCOC)cc(n4)C(=O)N4CCC[C@H]4C(=O)Nc4cc(OCCOCCOCCOC)cc(n4)C(=O)N4CCC[C@H]4C(=O)Nc4cc(OCCOCCOCCOC)cc(n4)C(=O)N3C2)c1", "test": "anion binding, ITC", "test system": "water", "conditions": "298 K, with: sodium bromide", "endpoint": "ΔH", "value": "3.6 ± 0.1 kJ mol^–1"}
{"SMILES": "CC(C)c1ccc(N(C)c2ccc3c(c2)OCC[C@H]3CNc2cnccc2C(=O)O)cc1", "target or system": "HSC-2", "test": "cell viability", "conditions": "7 days", "endpoint": "IC50", "value": "7.99 nM"}
{"SMILES": "O=C(N/N=C/c1ccc2c(ccc[n+]2Cc2ccccc2)c1)c1cccc(C(=O)N/N=C/c2ccc3c(ccc[n+]3Cc3ccccc3)c2)c1", "target or system": "telomeric G4 DNA hybrid-2", "test": "FRET melting", "conditions": "1 µM, DNA 0.2 µM, with: duplex DNA competitor 10 µM", "endpoint": "ΔTm", "value": "16 ± 0.6 °C"}
{"SMILES": "CN1CCCNC(=O)c2cccc(c2)C(=O)NCCCN(C)CCCNc2cccc3c2C(=O)c2cccc(c2C3=O)NCCC1", "target or system": "SAS", "test": "RNA-Seq, refers to: USP25 mRNA", "conditions": "1 µM, 6 h", "how to read": "relative to: untreated cells", "endpoint": "log2 fold change", "value": -1.15}
{"SMILES": "CNS(=O)(=O)Nc1nccc(Cc2c(C)c3ccc(Oc4ncccc4F)cc3oc2=O)c1F", "target or system": "NCI-H838", "test": "cell viability", "conditions": "7 days", "endpoint": "IC50", "value": "> 1000 nM"}
{"SMILES": "N=C(N)NCCC[C@@H]1NC(=O)[C@H](CCCNC(=N)N)NC(=O)[C@@H](CCCNC(=N)N)NC(=O)[C@@H](CCCNC(=N)N)NC(=O)[C@@H](C(c2ccccc2)c2ccccc2)NC(=O)[C@H](Cc2c[nH]c3ccccc23)NC(=O)[C@@H](C(c2ccccc2)c2ccccc2)NC1=O", "target or system": "Aspergillus fumigatus", "test": "XTT", "test system": "Af 293", "conditions": "MIC, 24 h, pre-formed biofilm", "endpoint": "biofilm reduction", "value": "35 to 38%"}
{"SMILES": "C[n+]1cc(/C=N/NC(=O)C(=O)N/N=C/c2cc3ccccc3[n+](C)c2)cc2ccccc21", "target or system": "telomeric G4 DNA hybrid-2", "test": "FRET melting", "conditions": "1 µM, DNA 0.2 µM, with: duplex DNA competitor 10 µM", "endpoint": "ΔTm", "value": "2.5 ± 0.2 °C"}
{"SMILES": "CC(=O)[O-].O.O.O.O.[Mn+2].[O-]c1ccc(Br)cc1C=NCCN1CCOCC1", "test": "FRAP", "conditions": "120 µM", "endpoint": "ferric reducing power", "value": "22.9%"}
{"SMILES": "CC(C)(C)c1cc(-c2ccc3cccnc3n2)nc(-c2ccc3cccnc3n2)c1.[Cl-].[Cl-].[Ru+2].c1ccc2cc3nc4c5cccnc5c5ncccc5c4nc3cc2c1", "target or system": "B16-F10", "test": "resazurin", "conditions": "with: light 523 nm, 100 J/cm2", "how to read": "relative to: dark EC50 over light EC50", "endpoint": "phototoxicity index", "value": 10}
{"SMILES": "C=CC(=O)Nc1cccc(Cn2ncc3cnc(Nc4cnn(CCOC)c4)nc32)c1", "target or system": "TGFBR2 human", "test": "binding, KINOMEscan", "conditions": "100 nM", "how to read": "lower = stronger binding", "endpoint": "percent of control", "value": "100%"}
{"SMILES": "C[n+]1ccc(/C=N/NC(=O)c2cccc(C(=O)N/N=C/c3cc[n+](C)cc3)n2)cc1", "target or system": "telomeric G4 DNA hybrid-2", "test": "FRET melting", "conditions": "1 µM, DNA 0.2 µM, with: duplex DNA competitor 10 µM", "endpoint": "ΔTm", "value": "8.3 ± 0.2 °C"}
{"SMILES": "Cn1ncc2cc(-c3cncc(Cl)c3N3CCC4(CCNC4=O)CC3)ccc21", "target or system": "LS174T", "test": "gene expression, microarray, refers to: SLC2A4 (GLUT4) mRNA", "conditions": "concentration not given, 4 h", "how to read": "relative to: untreated cells", "endpoint": "log2 fold change", "value": 1.53}
{"SMILES": "O=C(N/N=C/c1cc[n+](CC2CC2)c2ccccc12)c1ccc2ccc(C(=O)N/N=C/c3cc[n+](CC4CC4)c4ccccc34)nc2n1", "target or system": "telomeric G4 DNA hybrid-2", "test": "FRET melting", "conditions": "1 µM, DNA 0.2 µM", "endpoint": "ΔTm", "value": "25.4 ± 0.9 °C"}
{"SMILES": "Cc1ncsc1-c1ccc(C(C)NC(=O)C2CC(O)CN2C(=O)C(NC(=O)CCCCCCCCCCN2CCCC(Nc3ncc(Cl)c(Nc4ccccc4S(=O)(=O)C(C)C)n3)C2)C(C)(C)C)cc1 (stereo not shown)", "target or system": "22Rv1", "test": "RNA-seq, refers to: SLFN5 mRNA", "conditions": "concentration not given", "how to read": "relative to: DMSO", "endpoint": "log2 fold change", "value": -2.12}
{"note": "Repeated from above:"}
{"SMILES": "COC1CN([C@H]2CC[C@H]([C@@]3(C)Oc4c(Cl)cc(C(=O)NCc5c(SC)cc(C)[nH]c5=O)c(C)c4O3)CC2)C1", "test": "RNA-seq, refers to: mouse PALM homolog", "test system": "mouse, HT-1376 xenograft, whole blood", "conditions": "dose not given, PRC2 target gene", "how to read": "relative to: vehicle", "endpoint": "log2 fold change", "value": 0.0512}
{"SMILES": "O=C(N/N=C/c1ccc2c(ccc[n+]2Cc2ccccc2)c1)c1cccc(C(=O)N/N=C/c2ccc3c(ccc[n+]3Cc3ccccc3)c2)c1", "target or system": "telomeric G4 DNA hybrid-2", "test": "FRET melting", "conditions": "1 µM, DNA 0.2 µM, with: duplex DNA competitor 10 µM", "endpoint": "ΔTm", "value": "16 ± 0.6 °C"}
{"SMILES": "C=CC(=O)N1[C@@H](c2ccc3c(c2)OCO3)c2[nH]c3ccccc3c2C[C@H]1C(=O)N1CCN(C)CC1", "target or system": "human cyclin E1 wild type-3xFLAG:CDK2", "test": "co-IP with TMT proteomics, refers to: PRPF19", "conditions": "concentration not given, Q9UMS4", "how to read": "relative to: wild type DMSO", "endpoint": "relative co-enrichment", "value": "76%"}
{"SMILES": "CC(C)c1ccc(N(C)c2ccc3c(c2)OCC[C@H]3CNc2cnccc2C(=O)O)cc1", "target or system": "HSC-2", "test": "cell viability", "conditions": "7 days", "endpoint": "IC50", "value": "7.99 nM"}
